Measurements pooled from the literature.
Lines come from different studies, so protocols differ. “And” joins repeats or separate records; there may be more than shown. Numbers after ± are the reported error.
Tln1: Tln1 309-405 (Mus musculus, UniProt P26039)
Sequence of UniProt P26039 (whole entry, looked up): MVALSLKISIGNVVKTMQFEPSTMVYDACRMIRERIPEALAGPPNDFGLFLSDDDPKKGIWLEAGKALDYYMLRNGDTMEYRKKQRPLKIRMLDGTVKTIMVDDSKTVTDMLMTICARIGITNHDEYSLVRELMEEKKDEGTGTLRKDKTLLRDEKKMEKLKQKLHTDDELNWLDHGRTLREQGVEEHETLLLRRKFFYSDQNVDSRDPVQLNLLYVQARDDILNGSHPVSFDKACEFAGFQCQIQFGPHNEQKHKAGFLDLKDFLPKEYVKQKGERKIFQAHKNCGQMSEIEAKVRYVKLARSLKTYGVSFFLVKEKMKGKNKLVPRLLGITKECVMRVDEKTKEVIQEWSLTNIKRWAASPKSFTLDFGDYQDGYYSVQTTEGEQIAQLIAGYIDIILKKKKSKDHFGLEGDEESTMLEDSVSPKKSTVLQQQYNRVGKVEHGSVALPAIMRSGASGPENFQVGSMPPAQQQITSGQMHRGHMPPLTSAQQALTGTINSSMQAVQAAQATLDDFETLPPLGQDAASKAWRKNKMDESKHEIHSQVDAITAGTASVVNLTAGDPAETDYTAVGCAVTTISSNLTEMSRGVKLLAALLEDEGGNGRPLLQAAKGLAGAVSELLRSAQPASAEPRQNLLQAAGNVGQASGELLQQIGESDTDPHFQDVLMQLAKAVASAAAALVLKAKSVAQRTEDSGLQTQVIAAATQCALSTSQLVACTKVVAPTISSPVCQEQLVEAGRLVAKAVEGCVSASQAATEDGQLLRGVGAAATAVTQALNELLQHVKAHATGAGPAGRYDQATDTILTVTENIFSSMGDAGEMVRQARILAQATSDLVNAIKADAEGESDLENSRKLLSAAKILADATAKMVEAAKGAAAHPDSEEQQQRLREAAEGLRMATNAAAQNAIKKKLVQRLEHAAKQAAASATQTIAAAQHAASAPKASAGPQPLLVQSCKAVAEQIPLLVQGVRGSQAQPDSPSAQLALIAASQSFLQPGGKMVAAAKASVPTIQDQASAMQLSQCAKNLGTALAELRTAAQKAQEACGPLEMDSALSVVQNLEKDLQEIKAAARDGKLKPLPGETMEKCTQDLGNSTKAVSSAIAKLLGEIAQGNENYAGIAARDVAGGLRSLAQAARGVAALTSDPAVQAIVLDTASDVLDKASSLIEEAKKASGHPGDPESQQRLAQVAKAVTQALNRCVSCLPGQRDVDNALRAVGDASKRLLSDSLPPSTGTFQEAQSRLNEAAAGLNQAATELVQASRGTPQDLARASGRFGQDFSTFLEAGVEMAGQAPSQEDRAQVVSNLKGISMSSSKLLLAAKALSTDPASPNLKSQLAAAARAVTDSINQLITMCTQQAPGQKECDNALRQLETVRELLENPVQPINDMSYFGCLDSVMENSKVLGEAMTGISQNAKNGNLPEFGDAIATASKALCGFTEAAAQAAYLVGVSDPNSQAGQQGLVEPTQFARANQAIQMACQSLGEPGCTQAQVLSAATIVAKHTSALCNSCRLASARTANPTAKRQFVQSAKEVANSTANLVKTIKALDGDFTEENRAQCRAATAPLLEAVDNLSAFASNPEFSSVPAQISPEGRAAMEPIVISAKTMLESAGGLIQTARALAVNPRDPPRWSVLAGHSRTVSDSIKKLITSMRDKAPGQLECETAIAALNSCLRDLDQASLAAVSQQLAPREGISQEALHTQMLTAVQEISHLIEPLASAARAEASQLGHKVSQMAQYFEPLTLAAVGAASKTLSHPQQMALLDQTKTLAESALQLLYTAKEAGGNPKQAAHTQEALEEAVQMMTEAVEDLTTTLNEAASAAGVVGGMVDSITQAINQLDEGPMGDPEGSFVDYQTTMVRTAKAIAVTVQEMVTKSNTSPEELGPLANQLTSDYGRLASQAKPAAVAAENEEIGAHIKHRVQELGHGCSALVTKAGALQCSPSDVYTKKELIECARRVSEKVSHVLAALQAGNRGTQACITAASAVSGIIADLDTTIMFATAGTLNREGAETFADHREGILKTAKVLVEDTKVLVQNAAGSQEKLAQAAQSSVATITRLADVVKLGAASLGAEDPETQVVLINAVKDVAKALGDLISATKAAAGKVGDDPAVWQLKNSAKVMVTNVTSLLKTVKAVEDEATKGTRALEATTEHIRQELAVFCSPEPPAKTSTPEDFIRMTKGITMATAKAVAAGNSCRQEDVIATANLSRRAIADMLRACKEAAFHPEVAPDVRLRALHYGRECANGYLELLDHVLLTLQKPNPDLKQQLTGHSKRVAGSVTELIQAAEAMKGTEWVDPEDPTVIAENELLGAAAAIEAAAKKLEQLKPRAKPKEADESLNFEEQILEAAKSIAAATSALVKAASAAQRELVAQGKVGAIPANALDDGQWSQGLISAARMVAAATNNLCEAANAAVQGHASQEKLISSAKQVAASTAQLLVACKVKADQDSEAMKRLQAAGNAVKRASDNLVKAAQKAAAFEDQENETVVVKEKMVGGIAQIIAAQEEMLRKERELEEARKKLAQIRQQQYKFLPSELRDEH
CALM1: CALM1 (Homo sapiens, UniProt P0DP23)
ACTA1 F-actin: ACTA1 F-actin (Oryctolagus cuniculus, UniProt P68135)
CDC48A: CDC48A 1-463 (Arabidopsis thaliana, UniProt P54609)
Sequence of UniProt P54609 (whole entry, looked up): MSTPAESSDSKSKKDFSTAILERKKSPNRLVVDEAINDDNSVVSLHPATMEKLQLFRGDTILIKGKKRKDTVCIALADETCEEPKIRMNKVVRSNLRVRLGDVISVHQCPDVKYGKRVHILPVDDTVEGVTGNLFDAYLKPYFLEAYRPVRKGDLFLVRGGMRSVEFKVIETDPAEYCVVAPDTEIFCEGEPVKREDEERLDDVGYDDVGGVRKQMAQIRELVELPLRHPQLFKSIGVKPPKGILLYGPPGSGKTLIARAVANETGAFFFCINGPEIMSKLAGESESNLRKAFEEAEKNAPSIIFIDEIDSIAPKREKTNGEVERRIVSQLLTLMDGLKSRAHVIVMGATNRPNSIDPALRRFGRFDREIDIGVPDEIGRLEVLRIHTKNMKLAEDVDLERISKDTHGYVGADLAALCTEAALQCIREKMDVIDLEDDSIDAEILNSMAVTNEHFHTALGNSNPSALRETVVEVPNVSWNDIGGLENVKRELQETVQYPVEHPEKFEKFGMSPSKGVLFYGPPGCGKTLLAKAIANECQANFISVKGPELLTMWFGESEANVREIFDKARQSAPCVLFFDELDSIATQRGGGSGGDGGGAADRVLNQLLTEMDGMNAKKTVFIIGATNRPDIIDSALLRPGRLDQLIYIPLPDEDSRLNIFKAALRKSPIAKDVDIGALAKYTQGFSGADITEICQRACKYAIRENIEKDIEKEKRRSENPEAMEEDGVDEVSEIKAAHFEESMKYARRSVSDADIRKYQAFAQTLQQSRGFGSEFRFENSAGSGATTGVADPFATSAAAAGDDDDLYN
T1: ATRX ADD domain 167-289 K251R/F284Y (Homo sapiens); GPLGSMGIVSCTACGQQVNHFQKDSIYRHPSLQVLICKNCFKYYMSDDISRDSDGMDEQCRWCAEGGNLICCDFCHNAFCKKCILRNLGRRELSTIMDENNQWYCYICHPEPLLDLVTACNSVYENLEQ
B1: RAP1A 1-166 (Homo sapiens, UniProt P62834); sequence looked up; chain MREYKLVVLGSGGVGKSALTVQFVQGIFVEKYDPTIEDSYRKQVEVDCQQCMLEILDTAGTEQFTAMRDLYMKNGQGFALVYSITAQSTFNDLQDLREQILRVKDTEDVPMILVGNKCDLEDERVVGKEQGQNLARQWCNCAFLESSAKSKINVNEIFYDLVRQIN
B2: CKS1 (Saccharomyces cerevisiae, UniProt P20486); sequence looked up; chain MYHHYHAFQGRKLTDQERARVLEFQDSIHYSPRYSDDNYEYRHVMLPKAMLKVIPSDYFNSEVGTLRILTEDEWRGLGITQSLGWEHYECHAPEPHILLFKRPLNYEAELRAATAAAQQQQQQQQQQQQQQQQHQTQSISNDMQVPPQIS
B3: TEPSIN L438S/W444S (Homo sapiens, UniProt Q96N21); chain MAAAPPLRDRLSFLHRLPILLKGTSDDDVPCPGYLFEEIAKISHESPGSSQCLLEYLLSRLHSSSGHGKLKVLKILLYLCSHGSSFFLLILKRNSAFIQEAAAFAGPPDPLHGNSLYQKVRAAAQDLGSTLFSDTVLPLAPSQPLGTPPATGMGSQARPHSTLQGFGYSKEHGRTAVRHQPGQAGGGWDELDSGPSSQNSSQNSDLSRVSDSGSHSGSDSHSGASREPGDLAERVEVVALSDCQQELSLVRTVTRGPRAFLSREEAQHFIKACGLLNCEAVLQLLTCHLRGTSECTQLRALCAIASLGSSDLLPQEHILLRTRPWLQELSMGSPGPVTNKATKILRHFEASCGQLSPARGTSAEPGPTAALPGPSDLLTDAVPLPGSQVFLQPLSSTPVSSRSPAPSSGMPSSPVPTPPPDASPIPAPGDPSEAEARSAESRRSRPERIPGGTDSPKRGPSSCAWSRDSLFAGMELVACPRLVGAGAAAGESCPDAPRAPQTSSQRTAAKEPPGSEPSAFAFLNA
B4: DUSP1 3-148 (Homo sapiens, UniProt P28562); sequence looked up; chain MEVGTLDAGGLRALLGERAAQCLLLDCRSFFAFNAGHIAGSVNVRFSTIVRRRAKGAMGLEHIVPNAELRGRLLAGAYHAVVLLDERSAALDGAKRDGTLALAAGALCREARAAQVFFLKGGYEAFSASCPELCSKQSTPMGLSLP
B5: CFH domains 1108-1231 W1183R (Homo sapiens, UniProt P08603); sequence looked up; chain KCGPPPPIDNGDITSFPLSVYAPASSVEYQCQNLYQLEGNKRITCRNGQWSEPPKCLHPCVISREIMENYNIALRRTAKQKLYSRTGESVEFVCKRGYRLSSRSHTLRTTCWDGKLEYPTCAKR
B6: PUX2 1-149 (Arabidopsis thaliana, UniProt Q9ZU93); chain MDDVKDKLKGFMKKVNLSSSSGKFKGQGRVLGSSSSSSAPPVNPIQNRFNSSQAPNPTPRPKPNPNPLPEKPLSSSDQKISGSTRNPDHDPVRAPQDGFDPYGAFITSSNRSQNGYSLSMFECPICKNPFTSEEEVSVHVESCLGDTNG
B7: HCK 78-138 (Homo sapiens, UniProt P08631); chain SEDIIVVALYDYEAIHHEDLSFQKGDQMVVLEESGEWWKARSLATRKEGYIPSNYVARVDS
B8: OTULIN 55-352 W96R/C129S (Homo sapiens, UniProt Q96BN8); sequence looked up; chain MYRAADEIEKEKELLIHERGASEPRLSVAPEMDIMDYCKKERRGNTQKATCMKMGYEEVSQKFTSIRRVRGDNYSALRATLFQAMSQAVGLPPWLQDPELMLLPEKLISKYNWIKQWKLGLKFDGKNEDLVDKIKESLTLLRKKWAGLAEMRTAEARQIACDELFTNEAEEYSLYEAVKFLMLNRAIELYNDKEKGKEVPFFSVLLFARDTSNDPGQLLRNHLNQVGHTGGLEQVEMFLLAYAVRHTIQVYRLSKYNTEEFITVYPTDPPKDWPVVTLIAEDDRHYNIPVRVCEETSL
B9: KPNB1 33-211 (Homo sapiens, UniProt Q14974); sequence looked up; chain LPTFLVELSRVLANPGNSQVARVAAGLQIKNSLTSKDPDIKAQYQQRWLAIDANARREVKNYVLQTLGTETYRPSSASQCVAGIACAEIPVNQWPELIPQLVANVTNPNSTEHMKESTLEAIGYICQDIDPEQLQDKSNEILTAIIQGMRKEEPSNNVKLAATNALLNSLEFTKANFDK
B10: IGFBP7 30-159 (Homo sapiens, UniProt Q16270); chain DTCGPCEPASCPPLPPLGCLLGETRDACGCCPMCARGEGEPCGGGGAGRGYCAPGMECVKSRKRRKGKAGAAAGGPGVSGVCVCKSRYPVCGSDGTTYPSGCQLRAASQRAESRGEKAITQVSKGTCEQG
B11: Cacna1c 1647-1777 (Mus musculus, UniProt Q01815); sequence looked up; chain NALSLQAGLRTLHDIGPEIRRAISGDLTAEEELDKAMKEAVSAASEDDIFRRAGGLFGNHVTYYQSDSRGNFPQTFATQRPLHINKTGNNQADTESPSHEKLVDSTFTPSSYSSTGSNANINNANNTALGR
B12: CFH 1108-1231 R1203S (Homo sapiens, UniProt P08603); sequence looked up; chain KCGPPPPIDNGDITSFPLSVYAPASSVEYQCQNLYQLEGNKRITCRNGQWSEPPKCLHPCVISREIMENYNIALRWTAKQKLYSRTGESVEFVCKSGYRLSSRSHTLRTTCWDGKLEYPTCAKR
B13: BRAF kinase 448-723 K723G/P722S/S720E/L716E/S713E/Q709R/L706S/A688R/Y673S/N661V/K630S/V600E/L588N/Q562R (Homo sapiens, UniProt P15056); sequence looked up; chain DDWEIPDGQITVGQRIGSGSFGTVYKGKWHGDVAVKMLNVTAPTPQQLQAFKNEVGVLRKTRHVNILLFMGYSTKPQLAIVTQWCEGSSLYHHLHASETKFEMKKLIDIARQTARGMDYLHAKSIIHRDLKSNNIFLHEDNTVKIGDFGLATEKSRWSGSHQFEQLSGSILWMAPEVIRMQDSNPYSFQSDVYAFGIVLYELMTGQLPYSNINVRDQIIFMVGRGSLSPDLSKVRSNCPKRMKRLMAECLKKKRDERPSFPRILAEIEELARELSG
B14: SIL1 20-421 (Saccharomyces cerevisiae, UniProt Q08199); chain TILHSSIHSVPSGGEIISAEDLKELEISGNSICVDNRCYPKIFEPRHDWQPILPGQELPGGLDIRINMDTGLKEAKLNDEKNVGDNGSHELIVSSEDMKASPGDYEFSSDFKEMRNIIDSNPTLSSQDIARLEDSFDRIMEFAHDYKHGYKIITHEFALLANLSLNENLPLTLRELSTRVITSCLRNNPPVVEFINESFPNFKSKIMAALSNLNDSNHRSSNILIKRYLSILNELPVTSEDLPIYSTVVLQNVYERNNKDKQLQIKVLELISKILKADMYENDDTNLILFKRNAENWSSNLQEWANEFQEMVQNKSIDELHTRTFFDTLYNLKKIFKSDITINKGFLNWLAQQCKARQSNLDNGLQERDTEQDSFDKKLIDSRHLIFGNPMAHRIKNFRDEL
Sequence of UniProt P01024 (whole entry, looked up): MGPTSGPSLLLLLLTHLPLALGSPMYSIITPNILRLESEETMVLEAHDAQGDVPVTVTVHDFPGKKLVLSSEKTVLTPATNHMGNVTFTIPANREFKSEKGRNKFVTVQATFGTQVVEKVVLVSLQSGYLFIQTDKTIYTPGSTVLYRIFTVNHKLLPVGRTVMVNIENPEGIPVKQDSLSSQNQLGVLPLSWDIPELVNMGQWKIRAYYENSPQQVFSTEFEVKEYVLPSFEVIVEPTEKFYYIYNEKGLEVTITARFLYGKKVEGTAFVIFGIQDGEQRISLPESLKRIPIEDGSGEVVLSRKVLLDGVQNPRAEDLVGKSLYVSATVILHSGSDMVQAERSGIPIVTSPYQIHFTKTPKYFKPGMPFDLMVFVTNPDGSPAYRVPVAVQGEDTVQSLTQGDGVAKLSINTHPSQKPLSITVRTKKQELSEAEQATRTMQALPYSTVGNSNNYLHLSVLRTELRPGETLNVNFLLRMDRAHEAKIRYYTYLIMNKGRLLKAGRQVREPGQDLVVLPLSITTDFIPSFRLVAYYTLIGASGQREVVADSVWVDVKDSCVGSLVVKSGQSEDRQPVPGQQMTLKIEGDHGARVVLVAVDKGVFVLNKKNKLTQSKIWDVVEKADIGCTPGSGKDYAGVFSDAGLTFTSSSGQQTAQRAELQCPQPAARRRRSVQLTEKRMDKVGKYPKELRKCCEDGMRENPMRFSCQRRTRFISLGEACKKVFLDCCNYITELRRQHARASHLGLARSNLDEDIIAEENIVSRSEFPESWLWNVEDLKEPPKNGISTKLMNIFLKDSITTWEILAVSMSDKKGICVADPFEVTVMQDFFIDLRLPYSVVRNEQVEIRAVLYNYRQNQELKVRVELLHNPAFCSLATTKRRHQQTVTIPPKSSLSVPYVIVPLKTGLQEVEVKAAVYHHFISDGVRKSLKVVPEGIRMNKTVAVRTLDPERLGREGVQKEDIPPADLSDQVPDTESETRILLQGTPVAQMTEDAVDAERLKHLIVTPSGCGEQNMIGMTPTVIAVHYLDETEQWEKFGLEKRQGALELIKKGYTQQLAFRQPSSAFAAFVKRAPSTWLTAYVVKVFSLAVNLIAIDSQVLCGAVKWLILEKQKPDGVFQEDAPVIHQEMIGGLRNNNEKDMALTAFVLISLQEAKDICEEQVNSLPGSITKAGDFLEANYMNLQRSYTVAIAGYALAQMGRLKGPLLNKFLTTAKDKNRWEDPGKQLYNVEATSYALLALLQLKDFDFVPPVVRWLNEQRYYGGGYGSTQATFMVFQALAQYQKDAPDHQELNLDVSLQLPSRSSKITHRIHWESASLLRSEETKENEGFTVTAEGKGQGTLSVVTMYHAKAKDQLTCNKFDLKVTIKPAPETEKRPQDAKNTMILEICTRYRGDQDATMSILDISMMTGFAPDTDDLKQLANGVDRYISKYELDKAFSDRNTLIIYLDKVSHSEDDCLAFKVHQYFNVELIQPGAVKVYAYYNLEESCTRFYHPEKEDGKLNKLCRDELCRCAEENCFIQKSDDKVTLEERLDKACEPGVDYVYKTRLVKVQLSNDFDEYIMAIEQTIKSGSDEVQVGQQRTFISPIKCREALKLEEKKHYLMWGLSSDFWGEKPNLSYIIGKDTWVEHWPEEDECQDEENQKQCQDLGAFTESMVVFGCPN

Molecule	partner	assay	system	conditions	Kd
RRAQRQRRWEKRTAGVVEKMQQRQDRRR (SURF6 299-326 (Homo sapiens, UniProt O75683); sequence looked up)	NPM1 (Homo sapiens, UniProt P06748)	fluorescence polarisation	peptide	apparent	15.1 ± 1.7 µM
ARTKQTARKS (H3C1 1-10)	T1, ATRX ADD domain 167-289 K251R/F284Y (Homo sapiens)	ITC	peptide	–	3.6 µM
KLLMIIHDRREFAKFEEEKMNAKWDTGENPIYKSAVTTVVNPKYEGK (ITGB1 752-798 K768E (Homo sapiens, UniProt P05556-1); sequence looked up)	Tln1	NMR titration	–	–	324 µM
B1 (RAP1A 1-166)	PREX1 (Homo sapiens, UniProt Q8TCU6)	fluorescence titration	–	together with: mant-GDP 1 µM	89 ± 6 µM
B2 (CKS1)	SIC1 1-215 T2A/S69A/S76A/S80A, pT45 (Saccharomyces cerevisiae, UniProt P38634)	ITC	–	–	21 µM
SCN2A fragment Q1913A (Homo sapiens) (sequence not shown)	CALM1	fluorescence titration	–	together with: CaCl2	0.612 µM
Ybx1 (Mus musculus, UniProt P62960)	Purb (Mus musculus, UniProt O35295)	ELISA	–	–	0.0314 ± 0.0037 µM
SCN2A fragment Y1916A (Homo sapiens) (sequence not shown)	CALM1	fluorescence titration	–	pH 7.4, 22 °C, together with: calcium	0.109 µM
LVGWHRSYYTWN (LVG-TR3 peptide; Fam label)	CD274 (Homo sapiens, UniProt Q9NZQ7)	flow cytometry	peptide, MDA-MB-231	apparent, on cells	1.37 µM
B3 (TEPSIN L438S/W444S)	MAP1LC3B fragment (Homo sapiens)	BLI	–	–	5.72 µM and 6.13 µM and 6.95 µM and 9.01 µM
B4 (DUSP1 3-148)	MAPK14 2-349 (Homo sapiens, UniProt Q16539)	ITC	–	–	0.445 ± 0.067 µM
B5 (CFH domains 1108-1231 W1183R)	C3 996-1303 (Homo sapiens, UniProt P01024)	SPR	–	–	4.9 ± 0.4 µM
SPTBN2 actin-binding domain H278R (sequence not shown)	ACTA1 F-actin	co-sedimentation	–	–	6.7 µM
B6 (PUX2 1-149)	CDC48A	ITC	–	25 °C	59.2 ± 27.4 µM
B7 (HCK 78-138)	PIK3R1 80-333 (Homo sapiens, UniProt P27986)	ITC	–	–	26.2 ± 1.3 µM
B8 (OTULIN 55-352 W96R/C129S)	linear di-ubiquitin fragment	ITC	–	–	19.2 µM

Molecule	partner	assay	system	conditions	Kd
B9 (KPNB1 33-211)	VCP (Homo sapiens, UniProt P55072)	BLI	–	–	0.00643 µM
B10 (IGFBP7 30-159)	CD93 25-347 (Homo sapiens, UniProt Q9NPY3)	ITC	–	25 °C	4.26 µM
PUX5 (Arabidopsis thaliana, UniProt Q7Y175)	CDC48A	BLI	–	25 °C	0.41 ± 0.03 µM
B11 (Cacna1c 1647-1777)	Jph2 1-440 S165R (Mus musculus, UniProt Q9ET78)	ITC	–	–	5.83 µM
B12 (CFH 1108-1231 R1203S)	C3 C3dg 955-1303 (Homo sapiens, UniProt P01024)	SPR	–	–	11.5 ± 0.3 µM
MEAIAKYDFKATADDELSFKRGDILKVLNEECDQNWYKAELNGKDGFIPKNYIEMKPH (GRB2 N-terminal SH3 domain (Homo sapiens, UniProt P62993))	SOS1 peptide (Homo sapiens, UniProt Q07889)	NMR	–	–	210 µM
PALLD Ig3-Ig4 tandem del4 linker residues	ACTA1 F-actin	co-sedimentation	–	–	4.4 ± 1.4 µM
B13	MAP2K1 (Homo sapiens, UniProt Q02750)	BLI	–	–	0.5081 ± 0.00416 µM
SPTF (BRIP1 peptide 990-993; N-acetyl, pS, C-amide)	BRCA1 BRCT domain	NMR titration	peptide	–	1 µM
histone H3 fragment, N-acetyl/K18 methacrylated/C-terminal amide	MLLT1 1-148 (Homo sapiens, UniProt Q03111)	fluorescence titration	–	–	13 µM
CDH2 EC5 (Homo sapiens)	FGB residues 15-66, dimer (Homo sapiens)	ELISA	–	–	0.0813 µM
GSGVTQTTKCCYSLEFHQ (designed peptide)	ERBB2 23-652 (Homo sapiens, UniProt P04626)	fluorescence titration	peptide	apparent	0.12 ± 0.015 µM
ALLLSAPRR (P5 peptide; fluorescein label)	SSC1 mature (Saccharomyces cerevisiae, UniProt P0CS90)	fluorescence polarization	peptide	25 nM	0.28 µM
B14 (SIL1 20-421)	HSPA5 28-654 K294F (Homo sapiens, UniProt P11021)	MST	–	–	38 ± 8 µM
KLLITIHDRKEFAKFEEEKARAKWDTANNPLYKEATSTFTNITYRGT (ITGB3 742-788 R734K (Homo sapiens, UniProt P05106); sequence looked up)	Tln1	NMR titration	–	–	374 µM

For quick reference, copied from above:
Molecule	partner	assay	system	conditions	Kd
B1 (RAP1A 1-166)	PREX1 (Homo sapiens, UniProt Q8TCU6)	fluorescence titration	–	together with: mant-GDP 1 µM	89 ± 6 µM
B2 (CKS1)	SIC1 1-215 T2A/S69A/S76A/S80A, pT45 (Saccharomyces cerevisiae, UniProt P38634)	ITC	–	–	21 µM
SCN2A fragment Q1913A (Homo sapiens) (sequence not shown)	CALM1	fluorescence titration	–	together with: CaCl2	0.612 µM
Ybx1 (Mus musculus, UniProt P62960)	Purb (Mus musculus, UniProt O35295)	ELISA	–	–	0.0314 ± 0.0037 µM
